Measurements from different studies.
Protocols differ between the studies behind these lines. “And” joins repeats or separate records; there may be more than shown. ± marks the error that the study gave.

| Structure (SMILES) | assay | system | conditions | how to read | quantity | value |
| --- | --- | --- | --- | --- | --- | --- |
| CN(C)C(=O)c1cc2cnc(Nc3ccc(N4CCNCC4)cn3)nc2n1C1CCCC1 |  | HR+/HER2− advanced breast cancer patients | dose not given, region Latin America |  | median PFS2 | 49.2 months |
| COc1ccc([C@@H](O)c2cc(-c3ncnc4cc(N5CCOCC5)ccc34)c(F)cc2Cl)nn1 | RECIST version 1.1 | patients, advanced solid tumours | 300 mg twice daily, with: avelumab | relative to: patients | objective response rate | 0% |
| COc1ccccc1[C@H](Cn1c(=O)n(C(C)(C)C(=O)O)c(=O)c2c(C)c(-c3ncco3)sc21)OC1CCOCC1 | [1-13C]acetate infusion, isotopomer analysis | overweight or obese healthy men, plasma VLDL-TG palmitate | oral, 200 mg single dose, 9 h post-dose, with: oral fructose |  | fractional hepatic DNL | 6.79 % new palmitate |
| Cc1cc(Nc2ncc(Cl)c(Nc3ccccc3S(=O)(=O)C(C)C)n2)c(OC(C)C)cc1C1CCNCC1 |  | human | dose not given |  | duration of best response | 14.7 months |
| CC1(C)CCC(CN2CCN(c3ccc(C(=O)NS(=O)(=O)c4ccc(NCC5CCOCC5)c([N+](=O)[O-])c4)c(Oc4cnc5[nH]ccc5c4)c3)CC2)=C(c2ccc(Cl)cc2)C1 | cell killing, flow cytometry PI exclusion | canine blood CD21+ B cells, dog 31 | 24 h |  | EC50 | 121 nM |
| CC(C)C[C@H](NC(=O)[C@@H](Cc1c[nH]c2ccccc12)NC(=O)[C@H](Cc1ccc(O)cc1)NC(=O)[C@H](CO)NC(=O)[C@H](Cc1c[nH]c2ccccc12)NC(=O)[C@H](Cc1c[nH]cn1)NC(=O)[C@@H]1CCC(=O)N1)C(=O)N[C@@H](CCCNC(=N)N)C(=O)N1CCC[C@H]1C(=O)NCC(N)=O |  | Chinese children, central precocious puberty, serum | intramuscular, 22.5 mg day 1, month 6, month 3 |  | basal FSH level | 1.16 IU/L |
| Cc1nn(-c2nc3c(F)cc(F)cc3s2)c(O)c1C(c1ccc(C(F)(F)F)cc1)c1c(C)nn(-c2nc3c(F)cc(F)cc3s2)c1O |  | mouse, cerulein-induced acute pancreatitis, serum | 25 mg/kg |  | serum amylase activity | 103 mOD/min and 98.2 mOD/min and 191 mOD/min and 93.6 mOD/min and 184 mOD/min and 92.5 mOD/min |
| O=C(NS(=O)(=O)c1ccc(Cl)s1)c1cc2ccccc2n1Cc1ccc(Br)c2ccccc12 |  | mouse, acute hyperuricemia model | dose not given |  | serum uric acid | 404 µM and 303 µM and 410 µM and 339 µM and 440 µM and 392 µM and 505 µM |
| Cc1n[nH]c2ccc(-c3cc(OC[C@@H](N)Cc4ccccc4)cnc3-c3ccoc3)cc12 | kinase binding, competitor, MIB/MS competition, item: CKA2 | Candida albicans cell lysate | 10 µM | relative to: DMSO | log2 fold change | -1.17 |
| O=P(O)(O)C(Cl)(Cl)P(=O)(O)O |  | Mus musculus, sham-operated, hippocampal fissure | concentration not given, day 7 | relative to: total area | GFAP-positive area | 3.45% and 4.23% |
| CC(=O)Oc1cc2c(s1)CCN(C(C(=O)C1CC1)c1ccccc1F)C2 (stereo not drawn) | platelet aggregation, light transmission aggregometry | human patients, platelet-rich plasma | dose not given, 1 h, inhibition threshold 90%, with: TRAP 5 µM |  | patients with inhibition above threshold | 0% |
| CC(=O)NCC(=O)NCC(=O)N[C@H](C(=O)N[C@@H](Cc1ccc(O)cc1)C(=O)N[C@@H](CO)C(=O)N[C@H]1CSSC[C@@H](C(=O)N[C@@H](CCCNC(=N)N)C(=O)N2CCC[C@H]2C(=O)N[C@@H](CCC(N)=O)C(=O)N[C@@H](CCCNC(=N)N)C(=O)NCC(=O)NCCC(=O)N[C@@H](CCCCNC(=O)CN(CC(=O)NCCCC[C@H](NC(=O)CCNC(=O)CNC(=O)[C@H](CCCNC(=N)N)NC(=O)[C@H](CCC(N)=O)NC(=O)[C@@H]2CCCN2C(=O)[C@H](CCCNC(=N)N)NC(=O)[C@@H]2CSSC[C@H](NC(=O)[C@H](CO)NC(=O)[C@H](Cc3ccc(O)cc3)NC(=O)[C@@H](NC(=O)CNC(=O)CNC(C)=O)[C@@H](C)O)C(=O)N[C@@H](Cc3c[nH]cn3)C(=O)N[C@@H](Cc3ccccc3)C(=O)NCC(=O)N[C@@H](C)C(=O)N[C@@H](CC(C)C)C(=O)N[C@@H]([C@@H](C)O)C(=O)N[C@@H](Cc3c[nH]c4ccccc34)C(=O)N[C@@H](C(C)C)C(=O)N2)C(N)=O)C(=O)CCN)C(N)=O)NC(=O)[C@H](C(C)C)NC(=O)[C@H](Cc2c[nH]c3ccccc23)NC(=O)[C@H]([C@@H](C)O)NC(=O)[C@H](CC(C)C)NC(=O)[C@H](C)NC(=O)CNC(=O)[C@H](Cc2ccccc2)NC(=O)[C@H](Cc2c[nH]cn2)NC1=O)[C@@H](C)O |  | healthy BALB/c mice | subcutaneous, 0.08 mg/kg, 4 d, single dose |  | haemoglobin | 166 g/L |
| O=S(=O)(NCCNC/C=C/c1ccc(Br)cc1)c1cccc2cnccc12 | embryonic development | mouse zygotes | 20 µM, 120 h post-hCG |  | two-cell embryos | 35.3% and 15% |
| CN(C)C(=O)c1cc2cnc(Nc3ccc(N4CCNCC4)cn3)nc2n1C1CCCC1 | RNA-seq GSEA, item: HALLMARK_E2F_TARGETS | MB002 tumour | concentration not given, in vivo | relative to: vehicle, direction not given | GSEA enrichment score | 0.72 |
| CCCS(=O)(=O)NC(=O)c1cc2ccccc2n1Cc1ccc(Br)c2ccccc12 |  | mouse, acute hyperuricemia model | dose not given |  | serum uric acid | 1190 µM and 1150 µM and 952 µM |
| N#Cc1ccc2c(c1)[C@H]1CCCN(C(=O)c3ccc4[nH]cnc4c3)[C@H]1C2 |  | T2DM patients with overweight or obesity, plasma | oral, 160 mg, day 15 (360 h), multiple dosing, mean |  | plasma 1,5-anhydroglucitol | 12.2 µg/mL |
| O=C(O)CCc1nccc2c3ccccc3n(Cc3ccc(Br)c4ccccc34)c12 |  | mouse, acute hyperuricaemia model | oral, 2 mg/kg |  | serum uric acid | 345 µM |
| OC[C@H]1OC(O)[C@H]([18F])[C@@H](O)[C@@H]1O (stereo partly drawn) | PET | NSCLC and melanoma patients, primary tumours | dose not given, median of five patients |  | SUVmax | 7.7 |
| Cc1cc(C)c(CNC(=O)c2cc(Cl)c3c(c2C)O[C@@](C)([C@H]2CC[C@H](N(C)C)CC2)O3)c(=O)[nH]1 | IWG criteria, CR or PR or SD | relapsed/refractory AITL patients | dose not given |  | disease control rate | 68% |
| COc1cc2cc(-c3ccc(CC(=O)Nc4cc(C(C)(C)C(F)(F)F)no4)cn3)cnc2cc1OC | RECIST v1.1 | RET-altered advanced solid tumour patients | oral, 75 mg once daily, phase I |  | disease control rate | 54% |

| Structure (SMILES) | assay | system | conditions | how to read | quantity | value |
| --- | --- | --- | --- | --- | --- | --- |
| C[C@@H](NC(=O)N1C(=O)[C@H](Cc2ccnc(N)c2)[C@H]1C(=O)O)C1CCCCC1 |  | human, plasma | continuous intravenous infusion, 1.0 mg/kg/h, days 1 to 6 of 5-day infusion, median | relative to: baseline | time to maximum PT over baseline | 120 h |
| O=C(COc1ccc(Cl)cc1)NC12CC(c3nnc([C@H]4C[C@@H](OC(F)(F)F)C4)o3)(C1)C2 |  | healthy human, PBMC | oral, 800 mg single dose, day 2, 24 h post-dose, median, with: sodium arsenite ex vivo | relative to: baseline | CHAC1 mRNA change | -72% |
| CO[C@H]1CC[C@H](N2C(=O)CNc3ncc(-c4ccc(C(C)(C)O)nc4)nc32)CC1 | flow cytometry | stimulated B cells, human, blood | 30 mg single dose, 24 h, median | relative to: baseline | pS6RP change from baseline | -13.8% |
| OC(CCN1CCCCC1)(c1ccccc1)C1CC2C=CC1C2 (stereo not drawn) | resting-state EEG | healthy elderly humans | oral, 4 mg, eyes closed, LS mean | relative to: baseline | EEG beta power, O2 Pz, change in | -13.7% |
| CCN1CCN(Cc2ccc(Nc3ncc(F)c(-c4cc(F)c5nc6n(c5c4)[C@H](C)CCC6)n3)nc2)CC1 |  | human advanced solid tumours | 500 mg, phase Ia monotherapy RECIST 1.1 |  | complete response | 0% |
| NC(=O)c1cnc2[nH]ccc2c1N[C@@H]1[C@@H]2CC3C[C@H]1C[C@@](O)(C3)C2 | flow cytometry, item: CD8+ effector T cells | Japanese healthy subjects, peripheral blood | oral, 100 mg twice daily, day 4 |  | change from baseline | 0.57% |
| Cn1cc(Nc2nc(N)nc(-c3cccc(-n4ccc5cc(C6CC6)cc(F)c5c4=O)c3CO)n2)cn1 | CD63 upregulation, anti-IgE-induced | human, multiple ascending dose, whole blood basophils ex vivo | 50 mg twice daily, day 14, 12 h |  | inhibition | 70.4% |
| O=C(NS(=O)(=O)c1ccccc1)c1cc2ccccc2n1Cc1ccc(C2CC2)c2ccccc12 |  | male mouse, acute hyperuricaemia model, serum | oral, 2 mg/kg, 4 h |  | serum uric acid | 180 ± 4 µM |
| COc1nnc2ccc(N3CCC(c4ccc(OCCN5CCN(C)C(=O)[C@H]5C)cc4)CC3)nn12 |  | human patients | 2 mg once daily, 1.5-fold above baseline |  | time above HEXIM1 threshold | 1.39 h |
| Cc1cnc(N2CC3(CCOCC3)C2)c(C(=O)Nc2ccc(C(=O)N3CCc4cc(C(=O)Nc5c(C)cccc5F)sc4-c4ccccc43)cc2)c1 | item: Periostin | human RSV infection, nasal wash | dose not given, AUC, ITT-IS population | relative to: placebo | inhibition | 13% |
| N#CC[C@H](C1CCCC1)n1cc(-c2ncnc3[nH]ccc23)cn1 | phosphoflow cytometry, item: pSTAT5 | patients, patient plasma | dose not given | relative to: baseline | median peak inhibition | 58.9% |
| CO[C@H]1C[C@@H]2CC[C@@H](C)[C@@](O)(O2)C(=O)C(=O)N2CCCC[C@H]2C(=O)O[C@H]([C@H](C)C[C@@H]2CC[C@@H](OC(=O)NCCOCCOCCOCCOCCOCCOCCOCCOCCC(=O)N3CCc4cc(Cn5nc(-c6ccc7oc(N)nc7c6)c6c(N)ncnc65)ccc4C3)[C@H](OC)C2)C[C@@H](O)[C@H](C)/C=C(\C)[C@@H](O)[C@@H](OC)C(=O)[C@H](C)C[C@H](C)/C=C/C=C/C=C/1C | RECIST v1.1 | human | dose not given |  | duration of response | 16 months |
| COc1cc(Nc2ncc3c(n2)-c2ccc(Cl)cc2C(c2c(F)cccc2OC)=NC3)ccc1C(=O)O |  | mouse, NB-EBc1 neuroblastoma xenograft | oral, 5.2 mg/kg, day 7 | relative to: vehicle | relative tumour volume T/C | 2.14 |
| N#CCC1CCN(c2nc(Nc3ccc(N4CCC(O)CC4)cc3)c3c(=O)[nH]ncc3n2)CC1 | Olink multiplex | human, serum | 20 mg, day 15, unit not given | relative to: baseline | osteopontin level change | -1.05 |
| CC(C)NCC(O)c1ccc(O)c(O)c1 (stereo not drawn) |  | ventricular cardiomyocytes, C57BL/6 mouse | dose not given, 0.696 s |  | sarcomere length | 1.72 µm |
| C[C@H](NC(=O)c1c(C(F)F)nn(C)c1Oc1cccc(C(F)(F)F)c1)c1ccc(C(=O)O)cc1 | irRECIST | human, advanced tumours | 750 mg | best overall response | complete response | 0% |
| Cn1cc([C@H]2C[C@H]3CSC(N)=N[C@@]3(c3ccc(F)cc3F)CO2)cn1 | item: Aβx-40 | Mus musculus wild-type, cerebrospinal fluid | subcutaneous, 10 mg/kg, 1 h |  | Aβ40 level | 1.5 ng/mL |
| O=C(O)CCc1nccc2c3ccccc3n(Cc3ccc(C4CC4)c4ccccc34)c12 |  | mouse, acute hyperuricaemia model, serum | oral, 2 mg/kg, individual animal data |  | serum uric acid | 330 µM and 599 µM and 437 µM |
| NCc1cc2c(cc1F)C(=O)N(C1CCC(=O)NC1=O)C2 (stereo not drawn) | degrader, Western blot, item: NEK7 | cynomolgus monkey, PBMC | oral, 0.1 mg/kg, 6 h |  | degradation | ~65% |
